# Results pooled from the literature.
# Lines come from different studies, so protocols differ. Values joined by “and” are separate records of one study, mostly repeats; a detail may differ. ± gives the spread as reported.
Compound,assay,system,setting,tissue uptake
CCCC[C@H](NC(=O)COCCOCCNC(=O)CN1CCN(CC(=O)O)CCN(CC(=O)O)CC1)C(=O)N[C@H]1CC(=O)NCCCC[C@@H](C(N)=O)NC(=O)[C@H](Cc2c[nH]c3ccccc23)NC(=O)[C@H](CCCNC(=N)N)NC(=O)[C@@H](Cc2ccccc2)NC(=O)[C@H](Cc2c[nH]cn2)NC1=O [fluorine-18 labelled],,"C57 mice B16-F10 melanoma, heart","intravenous, 0.37 MBq, 2 h",0.05 ± 0.1 %ID/g
COc1ccc2c(c1)C(C)(C)C(/C=C/C1=C(Oc3ccc(C(=O)NCCCCOc4cc(CN(Cc5ccccn5)Cc5ccccn5)cc(CN(Cc5ccccn5)Cc5ccccn5)c4)cc3)C(=C/C=C3/N(CCCCS(=O)(=O)[O-])c4ccc(OC)cc4C3(C)C)CCC1)=[N+]2CCCCS(=O)(=O)[O-].O=[N+]([O-])[O-].O=[N+]([O-])[O-].[99Tc+].[C-]#[O+].[C-]#[O+].[C-]#[O+].[Zn+2],,"healthy BALB/c mice, adrenals",12 h,1.95 %ID/g and 2.14 %ID/g and 2.47 %ID/g and 2.9 %ID/g
CCCC[C@H](NC(=O)CNC(=O)CNC(=O)[C@H](CCCCNC(=O)[C@H](CC(=O)O)NC(=O)C(C)c1ccc(CC(C)C)cc1)NC(=O)CN1CCN(CC(=O)O)CCN(CC(=O)O)CCN(CC(=O)O)CC1)C(=O)N[C@H]1CC(=O)NCCCC[C@@H](C(N)=O)NC(=O)[C@H](Cc2c[nH]c3ccccc23)NC(=O)[C@H](CCCNC(=N)N)NC(=O)[C@@H](Cc2ccccc2)NC(=O)[C@H](Cc2c[nH]cn2)NC1=O (stereo partly drawn) [lutetium-177 labelled],,"C57 mice, tumour-bearing, tumor","intravenous, 0.037 MBq, 4 h",23.9 ± 2.08 %ID/g
COc1ccc(Nc2nc(Nc3ccc(OCCOCC[18F])cc3)ncc2Br)cc1,,"ICR mice, S180 tumour, bone","intravenous, 30 min, added: PF-562271 33 mg/kg oral 1 h before",3.39 ± 0.24 %ID/g
CCCC[C@H](NC(=O)CNC(=O)CNC(=O)[C@H](CCCCNC(=O)C(C)c1ccc(CC(C)C)cc1)NC(=O)CN1CCN(CC(=O)O)CCN(CC(=O)O)CCN(CC(=O)O)CC1)C(=O)N[C@H]1CC(=O)NCCCC[C@@H](C(N)=O)NC(=O)[C@H](Cc2c[nH]c3ccccc23)NC(=O)[C@H](CCCNC(=N)N)NC(=O)[C@@H](Cc2ccccc2)NC(=O)[C@H](Cc2c[nH]cn2)NC1=O (stereo partly drawn) [lutetium-177 labelled],,"C57 mice, tumour-bearing, liver",2 h,15 ± 1.88 %ID/g
CCCC[C@H](NC(=O)CCCCCCCNC(=O)CN1CCN(CC(=O)O)CCN(CC(=O)O)CC1)C(=O)N[C@H]1CC(=O)NCCCC[C@@H](C(N)=O)NC(=O)[C@H](Cc2c[nH]c3ccccc23)NC(=O)[C@H](CCCNC(=N)N)NC(=O)[C@@H](Cc2ccccc2)NC(=O)[C@H](Cc2c[nH]cn2)NC1=O [fluorine-18 labelled],,"C57 mice B16-F10 melanoma, blood","intravenous, 0.37 MBq, 1 h",0.43 ± 0.3 %ID/g
CCCC[C@H](NC(=O)CNC(=O)CNC(=O)[C@H](CCCCNC(=O)[C@H](CC(N)=O)NC(=O)C(C)c1ccc(CC(C)C)cc1)NC(=O)CN1CCN(CC(=O)O)CCN(CC(=O)O)CCN(CC(=O)O)CC1)C(=O)N[C@H]1CC(=O)NCCCC[C@@H](C(N)=O)NC(=O)[C@H](Cc2c[nH]c3ccccc23)NC(=O)[C@H](CCCNC(=N)N)NC(=O)[C@@H](Cc2ccccc2)NC(=O)[C@H](Cc2c[nH]cn2)NC1=O (stereo partly drawn) [lutetium-177 labelled],,"C57 mice, tumour-bearing, pancreas",2 h,0.39 ± 0.12 %ID/g
N#C[C@@H]1CCCN1C(=O)CNC(=O)c1ccnc2ccc(OCCCN3CCN(C(=O)CCc4ccc5c(c4)CN4CCN6CC(=O)[O][68Ga-]([O]C(=O)C4)([O]5)[O]c4ccc(CCC(=O)N5CCN(CCCOc7ccc8nccc(C(=O)NCC(=O)N9CCC[C@H]9C#N)c8c7)CC5)cc4C6)CC3)cc12,,"BALB/c nude mice, U-87 MG xenograft, kidney",2 h,2.68 ± 1.09 %ID/g
O=C(NCC1OC2CCC=CCCC2O1)c1ccc(COCCOCCOCC[18F])cc1 (stereo not drawn),,"healthy female BALB/c nude mice, stomach","intravenous, 7.4 MBq per mouse, 15 min",3.1 ± 0.5 %ID/g
Cc1cc(C)n(CCN(CCN)CCCCCCNC(=O)[C@@H](N)Cc2c[nH]cn2)n1.[99Tc+].[C-]#[O+].[C-]#[O+].[C-]#[O+],,"BALB/c nude mice, MCF7 xenograft, lung","intravenous, 4 h",0.4 ± 0.08 %IA/g
N#C[C@@H]1CCCN1C(=O)CNC(=O)c1ccnc2ccc(OCCCN3CCN(C(=O)CCc4ccc(O)c(CN5CCN6CC(=O)[O][Al-]([18F])([O]C(=O)C5)[O]c5ccc(CCC(=O)N7CCN(CCCOc8ccc9nccc(C(=O)NCC(=O)N%10CCC[C@H]%10C#N)c9c8)CC7)cc5C6)c4)CC3)cc12 (stereo partly drawn),,"BALB/c nude mice, U-87 MG tumour, gallbladder",120 min post-injection,62 ± 32.8 %ID/g
O=C([O-])CN1CCN(CC(=O)[O-])CCN(CC(=O)NC[C@H]2CC[C@H](C(=O)N[C@H](Cc3cnc4ccccc4c3)C(=O)NCCCC[C@H](NC(=O)N[C@@H](CCC(=O)O)C(=O)O)C(=O)O)CC2)CCN(CC(=O)[O-])CC1.[64Cu+2],ex vivo gamma counting,"22Rv1 tumour-bearing mice, spleen","intravenous, 0.74 MBq, 1 h post-injection",5.56 %ID/g
CC(C)C[C@H](NC(=O)[C@@H](CCCCNC(=O)[C@@H](Cc1ccccc1)NC(=O)CCCCCCCNC(=O)CN1CCN(CC(=O)O)CCN(CC(=O)O)CCN(CC(=O)O)CC1)NC(=O)[C@H](Cc1ccc(O)cc1)NC(=O)[C@H](CO)NC(=O)[C@H](Cc1c[nH]c2ccccc12)NC(=O)[C@H](Cc1c[nH]cn1)NC(=O)[C@@H]1CCC(=O)N1)C(=O)N[C@@H](CCCNC(=N)N)C(=O)N1CCC[C@H]1C(=O)NCC(N)=O [indium-111 labelled],biodistribution,"male athymic nude mice, DU-145 prostate cancer xenograft, heart","intravenous, 0.037 MBq, 1 h post-injection",0.2 ± 0.11 %ID/g
O=C(NCC1OC2CCC=CCCC2O1)c1ccc([18F])nc1 (stereo not drawn),,"healthy female BALB/c nude mice, heart","intravenous, 7.4 MBq per mouse, 60 min",1.2 ± 0.1 %ID/g
Cc1cc(C)n(CCN(CCN)CCCCCCNC(=O)[C@@H](N)Cc2c[nH]c3ccccc23)n1.[99Tc+].[C-]#[O+].[C-]#[O+].[C-]#[O+],,"BALB/c nude mice, A549 xenograft, heart","intravenous, 4 h",0.53 ± 0.06 %IA/g

# Repeated from above:
Compound,assay,system,setting,tissue uptake
CCCC[C@H](NC(=O)CCCCCCCNC(=O)CN1CCN(CC(=O)O)CCN(CC(=O)O)CC1)C(=O)N[C@H]1CC(=O)NCCCC[C@@H](C(N)=O)NC(=O)[C@H](Cc2c[nH]c3ccccc23)NC(=O)[C@H](CCCNC(=N)N)NC(=O)[C@@H](Cc2ccccc2)NC(=O)[C@H](Cc2c[nH]cn2)NC1=O [fluorine-18 labelled],,"C57 mice B16-F10 melanoma, blood","intravenous, 0.37 MBq, 1 h",0.43 ± 0.3 %ID/g
